Measurements of several laboratories.
Protocols differ between the studies behind these lines. Several values in a cell are separate wells, animals, samples, runs or records. Numbers after ± are the reported error.
Kir3.1/Kir3.4: Kir3.1/Kir3.4 (Homo sapiens, UniProt P48544+P48549)
pyrD: Dihydroorotate dehydrogenase (quinone) (pyrD, Acinetobacter baumannii, UniProt B7GZW7)
Sequence of UniProt B7GZW7 (whole entry, looked up): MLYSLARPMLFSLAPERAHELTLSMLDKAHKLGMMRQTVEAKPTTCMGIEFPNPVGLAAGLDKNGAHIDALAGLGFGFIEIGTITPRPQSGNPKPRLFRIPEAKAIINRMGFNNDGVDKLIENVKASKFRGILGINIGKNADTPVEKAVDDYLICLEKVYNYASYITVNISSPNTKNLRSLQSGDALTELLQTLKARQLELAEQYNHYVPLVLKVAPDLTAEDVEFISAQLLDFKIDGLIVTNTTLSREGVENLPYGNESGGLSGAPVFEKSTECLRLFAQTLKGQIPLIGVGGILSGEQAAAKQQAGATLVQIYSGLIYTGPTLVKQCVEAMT
TOP2A: DNA topoisomerase 2-alpha (TOP2A, Homo sapiens, UniProt P11388)
Sequence of UniProt P11388 (whole entry, looked up): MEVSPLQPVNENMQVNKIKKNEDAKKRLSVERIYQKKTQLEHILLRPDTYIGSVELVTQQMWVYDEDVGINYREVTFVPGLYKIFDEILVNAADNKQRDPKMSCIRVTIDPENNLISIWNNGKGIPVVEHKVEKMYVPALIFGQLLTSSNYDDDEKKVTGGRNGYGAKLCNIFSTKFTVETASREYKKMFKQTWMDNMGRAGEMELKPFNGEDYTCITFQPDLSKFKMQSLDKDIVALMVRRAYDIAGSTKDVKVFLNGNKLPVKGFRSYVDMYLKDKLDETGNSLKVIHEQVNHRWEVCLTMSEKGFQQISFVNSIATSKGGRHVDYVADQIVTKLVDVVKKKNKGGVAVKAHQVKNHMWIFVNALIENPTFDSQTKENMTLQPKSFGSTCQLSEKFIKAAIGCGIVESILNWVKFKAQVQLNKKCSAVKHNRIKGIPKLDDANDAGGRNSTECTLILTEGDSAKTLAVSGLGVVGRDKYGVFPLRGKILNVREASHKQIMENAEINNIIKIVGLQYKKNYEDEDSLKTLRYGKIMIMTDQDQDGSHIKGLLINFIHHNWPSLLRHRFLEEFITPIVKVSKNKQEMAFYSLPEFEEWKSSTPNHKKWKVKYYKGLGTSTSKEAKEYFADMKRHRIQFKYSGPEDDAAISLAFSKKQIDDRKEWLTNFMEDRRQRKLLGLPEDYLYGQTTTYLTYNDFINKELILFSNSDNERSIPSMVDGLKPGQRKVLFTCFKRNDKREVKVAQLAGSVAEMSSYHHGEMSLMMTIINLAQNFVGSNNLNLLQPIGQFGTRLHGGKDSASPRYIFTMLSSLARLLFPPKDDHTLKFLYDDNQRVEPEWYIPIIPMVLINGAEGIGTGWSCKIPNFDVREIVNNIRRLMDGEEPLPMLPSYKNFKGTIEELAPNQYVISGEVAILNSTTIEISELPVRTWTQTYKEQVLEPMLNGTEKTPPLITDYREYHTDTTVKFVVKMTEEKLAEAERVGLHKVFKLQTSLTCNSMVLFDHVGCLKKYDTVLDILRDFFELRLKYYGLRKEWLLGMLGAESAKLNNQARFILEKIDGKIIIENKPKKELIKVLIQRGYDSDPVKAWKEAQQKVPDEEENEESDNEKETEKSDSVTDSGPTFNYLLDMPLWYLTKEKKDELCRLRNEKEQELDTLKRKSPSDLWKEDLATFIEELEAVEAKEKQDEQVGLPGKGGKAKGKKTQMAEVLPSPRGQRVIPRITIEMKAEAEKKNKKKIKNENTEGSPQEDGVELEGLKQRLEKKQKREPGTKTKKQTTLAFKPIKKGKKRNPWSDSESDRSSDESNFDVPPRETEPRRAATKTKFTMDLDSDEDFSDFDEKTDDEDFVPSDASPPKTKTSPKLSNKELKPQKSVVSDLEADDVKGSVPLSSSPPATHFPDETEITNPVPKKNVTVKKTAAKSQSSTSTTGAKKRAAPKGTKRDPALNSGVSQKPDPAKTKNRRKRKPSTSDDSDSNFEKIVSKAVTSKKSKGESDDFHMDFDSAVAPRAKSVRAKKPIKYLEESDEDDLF
T1: lysine riboswitch RNA, 2-aminopurine at 17 (Bacillus subtilis); chain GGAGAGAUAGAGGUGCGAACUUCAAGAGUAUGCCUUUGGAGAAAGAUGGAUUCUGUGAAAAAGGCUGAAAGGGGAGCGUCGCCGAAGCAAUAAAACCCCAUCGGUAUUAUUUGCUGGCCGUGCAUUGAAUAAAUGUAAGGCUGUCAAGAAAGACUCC; chain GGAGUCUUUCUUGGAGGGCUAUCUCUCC
T2: aptamer DNA aminoglycoside aptamer; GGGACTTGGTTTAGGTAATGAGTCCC
Sequence of UniProt O76090 (whole entry, looked up): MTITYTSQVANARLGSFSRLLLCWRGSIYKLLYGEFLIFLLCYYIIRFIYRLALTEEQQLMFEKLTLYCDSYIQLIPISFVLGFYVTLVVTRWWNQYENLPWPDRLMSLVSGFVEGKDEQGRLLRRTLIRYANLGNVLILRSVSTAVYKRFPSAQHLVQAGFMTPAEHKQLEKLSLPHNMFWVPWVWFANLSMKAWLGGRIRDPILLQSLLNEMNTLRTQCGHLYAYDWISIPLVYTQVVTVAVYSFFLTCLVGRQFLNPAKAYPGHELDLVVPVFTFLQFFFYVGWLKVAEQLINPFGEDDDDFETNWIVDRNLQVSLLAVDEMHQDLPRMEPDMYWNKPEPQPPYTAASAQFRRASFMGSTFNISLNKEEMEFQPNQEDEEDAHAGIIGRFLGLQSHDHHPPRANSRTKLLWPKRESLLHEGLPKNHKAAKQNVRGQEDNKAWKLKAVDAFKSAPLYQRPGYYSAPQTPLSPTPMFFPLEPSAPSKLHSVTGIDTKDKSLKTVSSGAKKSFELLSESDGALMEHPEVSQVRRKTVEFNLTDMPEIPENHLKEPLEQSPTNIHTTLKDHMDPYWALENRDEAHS
Sequence of UniProt Q16774 (whole entry, unmodified, looked up): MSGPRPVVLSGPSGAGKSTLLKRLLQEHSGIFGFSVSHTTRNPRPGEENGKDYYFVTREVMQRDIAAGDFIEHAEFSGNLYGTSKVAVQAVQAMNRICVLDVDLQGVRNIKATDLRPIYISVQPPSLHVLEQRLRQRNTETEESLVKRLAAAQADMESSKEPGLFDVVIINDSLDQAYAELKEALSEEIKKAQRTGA
Sequence of UniProt Q13936 (whole entry, looked up): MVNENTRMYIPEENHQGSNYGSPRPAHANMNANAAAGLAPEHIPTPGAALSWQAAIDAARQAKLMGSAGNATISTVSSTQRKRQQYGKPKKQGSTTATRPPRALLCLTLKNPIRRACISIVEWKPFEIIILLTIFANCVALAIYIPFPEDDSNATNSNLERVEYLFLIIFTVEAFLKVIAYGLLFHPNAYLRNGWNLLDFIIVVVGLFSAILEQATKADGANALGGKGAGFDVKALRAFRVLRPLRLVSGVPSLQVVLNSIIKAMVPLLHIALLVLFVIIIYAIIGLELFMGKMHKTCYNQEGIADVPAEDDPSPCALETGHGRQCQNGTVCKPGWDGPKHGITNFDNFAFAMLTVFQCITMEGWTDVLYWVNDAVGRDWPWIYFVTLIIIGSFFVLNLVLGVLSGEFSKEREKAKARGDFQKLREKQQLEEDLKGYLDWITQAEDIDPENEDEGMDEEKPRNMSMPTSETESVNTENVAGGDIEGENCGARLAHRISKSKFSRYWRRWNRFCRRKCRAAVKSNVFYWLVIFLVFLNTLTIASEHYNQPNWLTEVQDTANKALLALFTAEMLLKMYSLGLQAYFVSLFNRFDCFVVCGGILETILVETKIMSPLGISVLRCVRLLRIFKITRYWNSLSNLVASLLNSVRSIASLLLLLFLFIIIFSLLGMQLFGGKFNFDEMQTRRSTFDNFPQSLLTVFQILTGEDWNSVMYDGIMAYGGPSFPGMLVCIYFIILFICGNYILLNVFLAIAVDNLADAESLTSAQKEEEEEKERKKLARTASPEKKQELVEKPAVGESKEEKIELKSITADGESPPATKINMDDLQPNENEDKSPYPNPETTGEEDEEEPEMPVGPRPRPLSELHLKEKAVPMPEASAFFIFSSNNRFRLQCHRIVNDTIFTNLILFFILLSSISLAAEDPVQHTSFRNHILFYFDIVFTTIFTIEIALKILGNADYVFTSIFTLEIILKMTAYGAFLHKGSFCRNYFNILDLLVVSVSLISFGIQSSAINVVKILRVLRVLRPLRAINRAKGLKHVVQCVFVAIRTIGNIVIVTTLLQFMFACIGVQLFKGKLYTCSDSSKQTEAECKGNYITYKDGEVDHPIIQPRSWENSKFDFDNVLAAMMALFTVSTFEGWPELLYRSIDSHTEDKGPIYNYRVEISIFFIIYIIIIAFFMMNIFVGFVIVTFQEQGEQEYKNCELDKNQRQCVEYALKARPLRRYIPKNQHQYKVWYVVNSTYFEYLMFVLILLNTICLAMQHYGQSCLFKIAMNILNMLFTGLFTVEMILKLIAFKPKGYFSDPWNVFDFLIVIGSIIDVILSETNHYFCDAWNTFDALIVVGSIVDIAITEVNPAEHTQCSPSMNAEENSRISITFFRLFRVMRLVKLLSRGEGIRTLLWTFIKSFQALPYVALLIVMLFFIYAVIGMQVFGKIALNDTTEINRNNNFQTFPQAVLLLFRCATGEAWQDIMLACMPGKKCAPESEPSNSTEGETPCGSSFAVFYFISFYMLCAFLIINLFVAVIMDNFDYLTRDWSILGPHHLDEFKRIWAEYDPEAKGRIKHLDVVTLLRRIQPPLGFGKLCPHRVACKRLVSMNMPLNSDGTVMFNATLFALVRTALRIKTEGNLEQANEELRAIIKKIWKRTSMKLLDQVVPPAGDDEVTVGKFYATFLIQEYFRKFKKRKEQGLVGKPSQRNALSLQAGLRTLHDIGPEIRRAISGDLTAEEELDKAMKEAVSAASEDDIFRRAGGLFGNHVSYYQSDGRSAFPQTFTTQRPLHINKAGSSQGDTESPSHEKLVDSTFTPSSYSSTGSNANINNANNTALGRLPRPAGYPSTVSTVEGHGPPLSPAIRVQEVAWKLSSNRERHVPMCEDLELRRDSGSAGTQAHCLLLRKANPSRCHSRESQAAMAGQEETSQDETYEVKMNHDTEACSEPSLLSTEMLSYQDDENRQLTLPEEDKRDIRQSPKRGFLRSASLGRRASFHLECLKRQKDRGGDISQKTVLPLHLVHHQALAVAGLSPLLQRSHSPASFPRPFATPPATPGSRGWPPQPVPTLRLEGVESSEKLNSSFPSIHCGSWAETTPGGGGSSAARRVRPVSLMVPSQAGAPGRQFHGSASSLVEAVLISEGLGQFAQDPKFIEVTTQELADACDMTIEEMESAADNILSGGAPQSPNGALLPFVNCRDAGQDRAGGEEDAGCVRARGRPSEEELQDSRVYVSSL

SMILES	tested on	test	system	setting	how to read	endpoint	result
CN1CCC(c2cc(-c3ccncc3)c(-c3ccc(F)cc3)[nH]2)CC1	Plasmodium falciparum	nanoluciferase	3D7 Hyp1-Nluc	20 µM, 72 h	reference: DMSO	parasite growth	2.89%
CC[C@@H](C)[C@@H](NC(=O)[C@@H](Cc1ccc(O)cc1)NC(=O)[C@H]1CCCN1C(=O)[C@@H](CCCNC(=N)N)NC(=O)[C@H](N)Cc1c[nH]cn1)C(=O)N[C@H](C)C(=O)N[C@H](Cc1c[nH]cn1)C(=O)N[C@H](CCCNC(=N)N)C(=O)N[C@@H](C(=O)N[C@H](Cc1ccc(O)cc1)C(=O)N[C@H](CO)C(=O)N[C@H](Cc1ccccc1)C(N)=O)C(C)C	Transferrin receptor protein 1 (Tfrc, Mus musculus, UniProt Q62351)	flow cytometry	DC2.4	6 h, pH 6, unit not given	reference: 0 h	surface TFRC expression	0.965 and 0.926
Cc1ccc(/C=C2\SC(=O)N(CC(=O)c3ccc([N+](=O)[O-])cc3)C2=O)cc1	AKR1B1 (Homo sapiens, UniProt P15121)	enzyme activity, inhibitor				log IC50	2.75 log nM
NCCCC(=O)O	SLC6A6 (Homo sapiens, UniProt P31641, G62A)	binding, microscale thermophoresis		15.6 µM, room temperature, added: 50 nM labelled protein	higher = more binding	normalised MST signal	0.053
OC[C@H]1OC(O)[C@H](O)[C@@H](O)[C@@H]1O (some centres unmarked)	Hexokinase-3 (HK3, Homo sapiens, UniProt P52790, R807A)	substrate inhibition		mutant R807A, complete substrate inhibition model, added: ATP 20 mM		kcat	58 ± 10 s⁻¹
Nc1ncnc2c1ncn2[C@@H]1O[C@H](COP(=O)(O)CP(=O)(O)OP(=O)(O)O)[C@@H](O)[C@H]1O	P2X purinoceptor 1 (P2RX1, Homo sapiens, UniProt P51575, R139P)	calcium influx		100 nM	reference: ionomycin response	calcium influx	2% and 4.12% and 1.13%
N#Cc1ccc2c(-c3ccncc3)c(-c3ccc(F)cc3)nn2c1	Cyclin-dependent kinase 1 (CDC28, Candida albicans, UniProt P43063)	kinase binding, competitor, MIB/MS competition, item: CDC28	Candida albicans cell lysate	1 µM	reference: DMSO	log2 fold change	0.0493
CC(C)C[C@H](NC(=O)C[C@H](O)[C@H](CC(C)C)NC(=O)[C@H](Cc1c[nH]cn1)NC(=O)CNC(=O)[C@@H](NC(=O)[C@H](C)NC(=O)[C@H](Cc1c[nH]c2ccccc12)NC(=O)[C@H](CCC(N)=O)NC(=O)[C@@H](Cc1ccccc1)NC(=O)COCCOCCNC(=O)CN1CCN(CC(=O)O)CCN(CC(=O)O)CCN(CC(=O)O)CC1)C(C)C)C(N)=O [lutetium-177 labelled]			female BALB/c nu/nu mice, liver	intravenous, 50 pmol, 1 h		tissue uptake	0.31 ± 0.04 %ID/g
NCCCC[C@H](N)C(=O)NCC(=O)O	T1, lysine riboswitch RNA, 2-aminopurine at 17 (Bacillus subtilis)	2-aminopurine fluorescence titration		pH 8.0, 37 °C, apparent		Kd	570 µM
C=CC(=O)N1CCC(C(=O)NCC(=O)N2CCN(c3nc(-c4cnc(N)nc4C(F)F)nc(N4CCOCC4)n3)CC2)CC1	PNCK (Homo sapiens, UniProt Q6P2M8)	KINOMEscan		1 µM		remaining binding	100%
O=c1c(O)cc([C@H]2Oc3cc(O)cc(O)c3C[C@H]2O)cc2c([C@H]3Oc4cc(O)cc(O)c4C[C@H]3O)cc(O)c(O)c12	alpha-amylase	enzyme activity, inhibitor, DNS method		100 µg/mL, added: soluble starch		inhibition	67.5%
CC1=NN(c2ccc(C)cc2)C(=O)C1=NNc1ccc(S(N)(=O)=O)cc1	bovine α-glucosidase	enzyme activity, inhibitor, glucose oxidase		200 µg/mL, added: maltose		inhibition	38.5%
CN(C)C(=O)C(CCN1CCC(O)(c2ccc(Cl)cc2)CC1)(c1ccccc1)c1ccccc1	Calcium-activated potassium channel subunit alpha-1, with LRRC26 γ1 subunit (KCNMA1, Homo sapiens, UniProt Q12791)	BK channel conductance, inside-out patch clamp		BKα/γ1, Vm 0 mV, nominally Ca2+-free		Hill coefficient	1.33 ± 0.49
C[C@H](CCC(C)(C)O)[C@H]1CC[C@H]2[C@@H]3CC=C4C[C@@](C)(O)CC[C@]4(C)[C@H]3CC[C@]12C	Glutamate NMDA receptor; GRIN1/GRIN2B (GRIN1/GRIN2B, Homo sapiens, UniProt Q05586+Q13224, Q556A)	positive allosteric modulator, two-electrode voltage clamp	Xenopus oocytes expressing GluN1-Q556A	10 µM, 0.02% cremophor, added: 100 µM glutamate and glycine	reference: without compound	current response	123 ± 6.7%
O=C(COc1ccc(Cl)cc1Cl)NCc1cccs1	Kir3.1/Kir3.4	activator, thallium flux	HEK293	concentration not given		activity	inactive
Cc1cc(Nc2ccc(S(F)(F)(F)(F)F)cc2)n2nc(C)nc2n1	pyrD	enzyme activity, inhibitor, colorimetric HTS, item: DCIP reduction		3 µM	direction not given	robust Z-score	23.3
O=C(COc1ccc(C(F)(F)F)cc1C(F)(F)F)Nc1cc(C2CC2)nn1C1CCC(F)(F)CC1	Kir3.1/Kir3.4	thallium flux, activator	HEK293		reference: standard compound	Emax	36%
Nc1ccc(C(=O)O)cc1	BEST1 (Homo sapiens, UniProt O76090)	whole-cell patch clamp	HEK293 transiently expressing channel	concentration not given, membrane potential 60 mV		current density	73 pA/pF and 39.9 pA/pF and 68.1 pA/pF and 52 pA/pF and 45.1 pA/pF and 89.3 pA/pF and 85.8 pA/pF
C=CC(=O)N1CCC[C@@H](n2nc(-c3ccc(Oc4ccccc4)cc3)c3c(N)ncnc32)C1	Insulin receptor (INSR, Homo sapiens, UniProt P06213)			1 µM		remaining activity	195%
COc1cc(-c2cc(C(C)=O)n3ccccc23)cc(OC)c1Cn1ccnc1	KAT2B (Homo sapiens, UniProt Q92831)					ΔTm	4.1 °C
CCCCCCCCCCCc1ccc([C@H]2CC[C@H]([N+](C)(C)CCC)CC2)cc1.[I-]	SPHK2 (Homo sapiens, UniProt Q9NRA0)	inhibitor, radiometric flash-plate	cell lysate	added: sphingosine 5 µM		Ki/Km ratio	2.2

SMILES	tested on	test	system	setting	how to read	endpoint	result
Cc1cc(Nc2ccc(C(C)(C)C)cc2)n2ncnc2n1	pyrD	enzyme activity, inhibitor, colorimetric HTS, item: DCIP reduction		3 µM	direction not given	robust Z-score	22.7
O=c1nc(SCc2ccc(C(F)(F)F)cc2)nc(SCc2csc3ccc(Cl)cc23)[nH]1	TOP2A	decatenation		7.8 µM, replicate 2		decatenated DNA	94.4%
NC[C@H]1O[C@H](O[C@H]2[C@H](O)[C@@H](O[C@H]3O[C@H](CO)[C@@H](O)[C@H](N)[C@H]3O)[C@H](N)C[C@@H]2N)[C@H](O)[C@@H](O)[C@@H]1O	T2, aptamer DNA aminoglycoside aptamer	square-wave voltammetry		apparent, aptamer electrode, Langmuir fit		Kd	500 µM
CC1=C(/C=C/C(C)=C/C=C/C(C)=C/C=O)C(C)(C)CCC1	Rhodopsin (RHO, Bos taurus, UniProt P02699, F273A)	retinal release, Trp FRET	lipid bicelles	28 °C, F273A mutant	reference: wild-type rhodopsin	relative koff	2.33 ± 0.87
Nc1nc2c(ncn2[C@@H]2O[C@H](COP(=O)(O)O)[C@@H](O)[C@H]2O)c(=O)[nH]1	GUK1 (Homo sapiens, UniProt Q16774, D103A)	enzyme activity, NADH-coupled		250 µM		reaction rate	12.8 s⁻¹ and 12.1 s⁻¹ and 11.5 s⁻¹
S=c1[nH]nc(-c2ccccn2)o1	P2X purinoceptor 4 (P2RX4, Homo sapiens, UniProt Q99571)	calcium mobilization	MCF7 stably transfected	100 µM, added: ATP 100 µM		fluorescence increase	82.4 ± 0.54%
Cn1cc(-c2ccc(-c3cncc(Cl)c3N3CCC4(CCNC4=O)CC3)cc2)cn1	COLO 205	gene expression, microarray, item: SPIB mRNA		concentration not given, 2 h	reference: untreated cells	log2 fold change	-3.32
NC/C(=C\F)COc1cccc(Cn2c(=S)[nH]c(=O)c3[nH]cnc32)c1	CACNA1C (Homo sapiens, UniProt Q13936)	peak ion current, inhibitor, automated patch clamp		10 µM, pulse 10, single recording		inhibition	-1.1% and -0.5% and -1.9%
CC(C)C[C@H](N)C(=O)O	snf (Aquifex aeolicus, UniProt O67854, L400C)	scintillation proximity		concentration not given, 400 nM protein		binding stoichiometry	0.79 ± 0.04 mol/mol LeuT
CCN1CCC[C@H]1CNC(=O)c1c(O)c(Cl)cc(Cl)c1OC	ADGRF1 (Homo sapiens, UniProt Q5T601)	β-arrestin recruitment, TANGO luminescence, item: GPR110		concentration not given	reference: basal luminescence	log2 fold change	0.285
CC[C@H](C)[C@@H]1NC(=O)[C@H](C)NC(=O)[C@H]([C@@H](C)CC)NC(=O)[C@H](CCC(N)=O)NC(=O)[C@H](C)NC(=O)[C@H](CCCNC(=N)N)NC(=O)[C@H](C(C)C)NC(=O)[C@H](CC(C)C)NC(=O)[C@H](CCC(=O)O)NC(=O)[C@H](CCCNC(=N)N)NC(=O)CNC(=O)[C@@H](NC(=O)[C@H](CC(C)C)NC(=O)[C@H](CCCCN)NC(=O)[C@@H](NC(=O)[C@@H](NC(=O)[C@H](CCC(=O)O)NC(=O)[C@H](CCC(=O)O)NC(=O)[C@H](CCSC)NC(=O)[C@H](Cc2c[nH]c3ccccc23)NC(=O)[C@H](CO)NC(=O)[C@@H](N)CC(=O)O)C(C)C)[C@@H](C)CC)CSSC[C@@H]2NC(=O)[C@@H](NC(=O)[C@H](CCCCN)NC(=O)[C@H](CC(N)=O)NC(=O)[C@H](C)NC(=O)[C@H](CC(C)C)NC(=O)[C@H](C)NC(=O)[C@H](CO)NC(=O)[C@H](Cc3ccc(O)cc3)NC(=O)[C@H](CC(C)C)NC(=O)[C@H](CCC(N)=O)NC(=O)c3ccc(-c4c5ccc(=[N+](C)C)cc-5oc5cc(N(C)C)ccc45)c(C(=O)[O-])c3)CSSC[C@H](NC(=O)CNC(=O)[C@H](C(C)C)NC(=O)[C@H](Cc3c[nH]cn3)NC2=O)C(=O)N[C@@H]([C@@H](C)O)C(=O)N[C@@H](CCCCN)C(=O)N[C@@H](CCCNC(=N)N)C(=O)N[C@@H](CO)C(=O)N[C@@H](CC(C)C)C(=O)N[C@@H](C)C(=O)N[C@@H](CCCNC(=N)N)C(=O)N[C@@H](Cc2ccccc2)C(=O)N[C@H](C(=O)O)CSSC[C@@H](C(=O)NCC(=O)N[C@@H](CCSC)C(=O)N[C@@H](CO)C(=O)N[C@H](C(=O)N[C@@H](Cc2c[nH]c3ccccc23)C(=O)N[C@@H](CO)C(=O)O)[C@@H](C)O)NC1=O	Relaxin receptor 1 (RXFP1, Homo sapiens, UniProt Q9HBX9)	NanoBRET		concentration not given, infinite dilution		fast dissociation fraction	25.4%
COc1cc2ccc(=O)oc2cc1O	uncharacterized protein (Solanum tuberosum, UniProt M0ZZL3)	inhibitor, UDP-Glo		added: 100 µM UDP-glucose		reaction velocity	8.8 ± 0.3 nmol/min/mg
CC(C)C[C@H](NC(=O)C[C@H](O)[C@H](CC(C)C)NC(=O)[C@H](Cc1c[nH]cn1)NC(=O)CNC(=O)[C@@H](NC(=O)[C@H](C)NC(=O)[C@H](Cc1c[nH]c2ccccc12)NC(=O)[C@H](CCC(N)=O)NC(=O)[C@@H](Cc1ccccc1)NC(=O)COCCOCCNC(=O)CCC(C(=O)O)N1CCN(CC(=O)O)CCN(CC(=O)O)CCN(CC(=O)O)CC1)C(C)C)C(N)=O (some centres unmarked) [lutetium-177 labelled]			BALB/c nu/nu mice, female, PC-3 xenograft tumour	intravenous, 100 pmol, 90 h, added: PA 300 µg		tissue uptake	0.39 ± 0.07 %ID/g
O=[N+]([O-])c1cc(C(F)(F)F)ccc1NCc1ccsc1	Endothelial PAS domain-containing protein 1, PAS-B domain (EPAS1, Homo sapiens, UniProt Q99814, N288A)	ZZ-exchange NMR		25 °C		koff	1.45 ± 0.05 s⁻¹
CCCCCCCC/C=C\CCCCCCCC(=O)NCCc1ccc(O)c(O)c1	Trpv1 (Mus musculus, UniProt Q704Y3, D510E)	ion current, agonist, whole-cell patch clamp		D510E		Hill coefficient	2.48 ± 0.32
O=c1nc(SCc2cc(F)cc(C(F)(F)F)c2)nc(SCc2ccc3nc(Cl)ccc3c2)[nH]1	TOP2A	ATPase activity		7.8 µM, added: ATP 0.5 mM		ATP hydrolysis rate	2.19 µM/min and 0.124 µM/min
Cc1cc(Nc2cc(F)c(C(F)(F)F)c(F)c2)n2ncnc2n1	pyrD	enzyme activity, inhibitor, colorimetric HTS, item: DCIP reduction		3 µM	direction not given	robust Z-score	18.8
c1coc(-c2n[nH]cc2-c2ccnc3ccccc23)c1	Serine/threonine-protein kinase CLA4 (CLA4, Candida albicans, UniProt O14427)	kinase binding, MIB/MS competition	Candida albicans lysate	10 µM	reference: DMSO, negative = stronger binding	log2 fold change	-0.05
Cc1cc(Nc2ccc(SC(F)(F)F)cc2)n2ncnc2n1	pyrD	enzyme activity, inhibitor, colorimetric HTS, item: DCIP reduction		3 µM	direction not given	robust Z-score	23.7
CC(C)C[C@H](N)C(=O)Nc1ccc2ccccc2c1	rat aminopeptidase III	substrate		MW 110 kDa		kcat	4.13 s⁻¹
